Measurements gathered from unrelated publications.
Numbered parts are unrelated; each lists some results of a single study. Changes are numbered by the printed parent chain.

Sample 1
Target: Sal-like protein 4, full length isoform A (SALL4, Homo sapiens, UniProt Q9UJQ4, residues 1-1053)
UniProt Q9UJQ4, sequence (whole entry, looked up): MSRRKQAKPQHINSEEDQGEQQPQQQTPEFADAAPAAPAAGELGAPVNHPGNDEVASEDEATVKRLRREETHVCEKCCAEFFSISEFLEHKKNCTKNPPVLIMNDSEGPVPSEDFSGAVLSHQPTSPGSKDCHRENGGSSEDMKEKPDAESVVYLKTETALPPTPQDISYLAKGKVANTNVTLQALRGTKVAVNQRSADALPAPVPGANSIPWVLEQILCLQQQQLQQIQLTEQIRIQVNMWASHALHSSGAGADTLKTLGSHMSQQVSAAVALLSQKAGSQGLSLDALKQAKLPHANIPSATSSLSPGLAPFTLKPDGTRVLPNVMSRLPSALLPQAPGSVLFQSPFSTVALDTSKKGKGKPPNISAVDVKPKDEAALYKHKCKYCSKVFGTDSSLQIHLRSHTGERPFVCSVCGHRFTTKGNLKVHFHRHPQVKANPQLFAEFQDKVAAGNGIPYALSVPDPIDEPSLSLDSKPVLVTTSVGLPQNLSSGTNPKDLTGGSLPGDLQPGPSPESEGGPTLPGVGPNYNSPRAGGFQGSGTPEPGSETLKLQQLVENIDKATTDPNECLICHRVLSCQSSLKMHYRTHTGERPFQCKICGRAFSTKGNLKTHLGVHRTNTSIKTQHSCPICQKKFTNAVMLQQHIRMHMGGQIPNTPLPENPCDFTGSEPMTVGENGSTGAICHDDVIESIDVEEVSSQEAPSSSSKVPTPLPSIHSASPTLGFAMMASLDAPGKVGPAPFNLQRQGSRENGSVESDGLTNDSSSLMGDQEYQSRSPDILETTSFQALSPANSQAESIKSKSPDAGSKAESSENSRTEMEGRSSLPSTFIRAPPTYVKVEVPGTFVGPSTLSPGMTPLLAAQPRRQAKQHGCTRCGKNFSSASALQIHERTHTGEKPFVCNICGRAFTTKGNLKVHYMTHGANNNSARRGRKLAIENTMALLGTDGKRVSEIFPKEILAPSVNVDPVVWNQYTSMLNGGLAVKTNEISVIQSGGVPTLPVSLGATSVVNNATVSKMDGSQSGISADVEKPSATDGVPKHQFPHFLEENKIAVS
Method: universal PBM
Molecule type: double-stranded DNA, one strand shown
Medium: in vitro
Concentration: 600 nM
Setting: 8-mer, flanks averaged, mean of replicates
Reading: higher = stronger binding
| Strand | E-score |
| --- | --- |
| TAGCTTGA | -0.0886 |
| CGCTTCAG | -0.092 |
| CGAACGTC | -0.133 |
| ACGCATCT | -0.0309 |
| AGTCCCCG | -0.251 |
| GGCTGCCC | -0.422 |
| CGTTTGCC | -0.166 |
| GACTGAGC | -0.298 |

Sample 2
Target: vanadate, free oxyanion
Method: microfluidic competitive inhibition
Medium: in vitro, cell-free expressed
Concentration: not given
Setting: derived from inhibition constants, unchanged parent 676 nM
Reading: lower = stronger binding
Starting sequence: PafA, mature enzyme, eGFP fusion (Elizabethkingia meningoseptica, UniProt Q9KJX5); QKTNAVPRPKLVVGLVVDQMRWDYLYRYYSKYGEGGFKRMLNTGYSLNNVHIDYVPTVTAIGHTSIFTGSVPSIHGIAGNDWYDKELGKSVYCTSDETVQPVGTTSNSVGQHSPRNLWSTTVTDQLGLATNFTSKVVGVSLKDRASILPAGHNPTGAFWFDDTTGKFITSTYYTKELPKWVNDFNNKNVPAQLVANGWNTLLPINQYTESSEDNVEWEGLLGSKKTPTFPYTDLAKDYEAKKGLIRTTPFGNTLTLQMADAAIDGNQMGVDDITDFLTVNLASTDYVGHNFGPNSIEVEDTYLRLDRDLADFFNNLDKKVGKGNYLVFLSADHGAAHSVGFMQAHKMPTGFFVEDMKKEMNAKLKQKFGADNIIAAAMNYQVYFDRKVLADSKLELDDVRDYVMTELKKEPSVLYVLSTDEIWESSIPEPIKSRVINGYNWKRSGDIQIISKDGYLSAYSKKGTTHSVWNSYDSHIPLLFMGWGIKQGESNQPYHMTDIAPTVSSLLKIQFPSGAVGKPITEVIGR
| Substitution | oxyanion analog dissociation constant |
| --- | --- |
| Q125V | 899 nM |
| K31G | 671 nM |
| D300G | 1.1 µM |
| N470G | 590 nM |
| A262G | 591 nM |
| G323V | 742 nM |
| L389G | 726 nM |
| L478G | 387 nM |
| K241V | 651 nM |
| S108V | 663 nM |
| I485G | 1.3 µM |
| K508V | 726 nM |
| D453G | 565 nM |
| M20G | 452 nM |
| S283G | 633 nM |
| L394G | 835 nM |
| P190G | 601 nM |
| E97V | 594 nM |
| A157V | 603 nM |
| H337G | 666 nM |
| R400G | 564 nM |
| Y472V | 889 nM |
| V122A | 603 nM |
| G156A | 464 nM |
| T521V | 668 nM |

Sample 3
Target: POU domain, class 5, transcription factor 1, POU domain (Pou5f1, Mus musculus, UniProt P20263, residues 131-289)
UniProt P20263, sequence (131-289, looked up): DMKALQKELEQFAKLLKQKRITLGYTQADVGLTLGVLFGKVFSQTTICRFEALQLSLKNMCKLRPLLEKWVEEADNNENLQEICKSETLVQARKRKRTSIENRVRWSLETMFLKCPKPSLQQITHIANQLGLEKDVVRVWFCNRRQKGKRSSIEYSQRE
Method: Spec-seq
Molecule type: double-stranded DNA, one strand shown
Medium: in vitro
Concentration: not given
Setting: whole probe, mean of replicates
Reference: not given
Reading: lower = stronger binding
All sequences stand within: GAGTCGTCTCGTCAGCAC … TCCGTAGAGCACTCAGGTC
| Strand | relative binding energy [ln ratio] |
| --- | --- |
| ATGTTGA | -0.527 |
| ATGATTA | -0.4 |
| ATACCTA | 0.36 |
| TGATTAA | -0.519 |
| ATGGGTA | 0.497 |
| ATAATGA | -0.191 |
| ATGCTAC | 0.407 |
| ATGCTTC | 0.486 |

Sample 4
Target: CCNF, cyclin fold, Cln2 fusion (human)
Method: yeast growth competition, sequencing
Medium: yeast
Setting: strong parent motif
Reference: not given
Reading: higher = stronger binding
Starting sequence: viral docking peptide; KGVKRKLFAEDSS; partner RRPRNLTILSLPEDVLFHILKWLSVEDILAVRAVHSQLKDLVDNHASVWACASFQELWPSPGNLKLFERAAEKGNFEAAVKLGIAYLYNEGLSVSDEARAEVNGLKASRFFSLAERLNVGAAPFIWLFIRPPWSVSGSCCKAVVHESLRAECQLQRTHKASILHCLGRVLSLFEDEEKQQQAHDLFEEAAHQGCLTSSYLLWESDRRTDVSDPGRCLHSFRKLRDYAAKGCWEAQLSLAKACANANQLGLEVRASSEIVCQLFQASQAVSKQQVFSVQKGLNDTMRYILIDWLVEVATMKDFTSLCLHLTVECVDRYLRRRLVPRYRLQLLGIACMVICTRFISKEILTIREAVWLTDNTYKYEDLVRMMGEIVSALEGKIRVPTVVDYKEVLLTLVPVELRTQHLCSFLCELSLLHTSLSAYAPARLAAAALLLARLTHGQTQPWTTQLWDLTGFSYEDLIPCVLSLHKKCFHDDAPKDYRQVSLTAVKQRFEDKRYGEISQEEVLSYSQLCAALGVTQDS
| Substitution | normalised enrichment score |
| --- | --- |
| KGVKRKLFGEDSS [A9G] | 8.04 |
| KGVKFKLFAEDSS [R5F] | 0.512 |
| KGVVRKLFAEDSS [K4V] | 7.83 |
| KGVKRKLFCEDSS [A9C] | 7.83 |
| KGTKRKLFAEDSS [V3T] | 7.54 |
| KGVKRKLFADDSS [E10D] | 8.6 |
| KGVKRKLFAEDHS [S12H] | 7.64 |
| KGVARKLFAEDSS [K4A] | 8.48 |
| KGVKRKTFAEDSS [L7T] | 0.629 |
| KGVKRKLFAFDSS [E10F] | 7.82 |
| KGVKRGLFAEDSS [K6G] | 3.96 |
| KGVKRKLPAEDSS [F8P] | 0.287 |
| KGVKDKLFAEDSS [R5D] | 0.471 |
| KGVKRKLKAEDSS [F8K] | 0.976 |
| KGVKRKLFAEDSA [S13A] | 7.73 |
| KGVKRWLFAEDSS [K6W] | 1.56 |
| KGVKRKLFAEESS [D11E] | 8.26 |
| KGVKRDLFAEDSS [K6D] | 0.851 |

Repeated from above (sample 4):
| Substitution | normalised enrichment score |
| --- | --- |
| KGVKFKLFAEDSS [R5F] | 0.512 |
| KGVKRKLFAEDSA [S13A] | 7.73 |
| KGVKRDLFAEDSS [K6D] | 0.851 |
| KGVVRKLFAEDSS [K4V] | 7.83 |
| KGVKRKTFAEDSS [L7T] | 0.629 |
| KGVKDKLFAEDSS [R5D] | 0.471 |
